{"data": "Measurements gathered from unrelated publications", "note": "Numbered parts are unrelated; each lists some results of a single study."}
{"data": "Series 1", "target": "RNA binding protein fox-1 homolog 2, RRM domain, GST-SBP tag (RBFOX2, Homo sapiens, UniProt O43251-10, residues 100-194)", "method": "RNA Bind-n-Seq", "molecule type": "RNA", "medium": "in vitro", "tested at": "365 nM", "setting": "natural RNA segment, single round, ends assumed", "baseline": "no-protein control", "reading": "higher = stronger binding", "constant ends, left off below": "GGGAGUUCUACAGUCCGACGAUC … UGGAAUUCUCGGGUGCCAA", "Residues (chain)": "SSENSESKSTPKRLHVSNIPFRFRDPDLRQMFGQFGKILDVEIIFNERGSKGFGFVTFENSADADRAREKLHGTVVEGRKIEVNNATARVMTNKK"}
{"Strand": "UAUUCAAGCCAGAUAUUUGGAAGCAAAUGAUAUUUCCUCUUGCAGUGUCCACAAAUCUGAAUAUUAGGGGCAUGAAAUUAGGCUUACCAUCUGAUUUGUAAUUACAAUUU", "RBNS enrichment (R)": 0.714}
{"Strand": "ACUUGUUUUCUUUUGGCUUUUGUUGUUUUUGUUUUGUUCUGUUUGUUUUGUUUUGUAUUUCUUUGUUAUUUUAUUGGGAAGGUAAGCGGAAUGUGCUCAUAGACCAUCAG", "RBNS enrichment (R)": 3.71}
{"Strand": "AAAGUUUUCCUUUGUAAUCACUCCCAUUUUUACUUAACAACCAACUUGUUGUGGCUCUUAUUUCUGAAUUCAAAGCUUGUGAAAAAAUAAAGAAAAUGAACUGCCCACUG", "RBNS enrichment (R)": 1.28}
{"Strand": "UGGCCUUGGCGAGGGCUGGUCUGUGCAUAGAAGGGAUAGUGGCCACACUGCAGCUGAGGCCCCAGGUGGCAGCCAUGGAUCAUGUAGACUUCCAGAUGGUCUCCCGAACC", "RBNS enrichment (R)": 1.9}
{"Strand": "UCCCUGCUGCAUCUGCAUGAAGCCCCUGCUUUUUAGGCCUCACUCCCAUCAGAACCCUGCCUGCCCACCUGCAACUCCCCCCCAACAAUGCCAUUCCCACUUGCCCCAGA", "RBNS enrichment (R)": 15.5}
{"Strand": "AAGGCAUUCCUUGUUUUUAACUAAUAUUUGCACAUUUUCUUAGUCUCCUUCCUGAUGGUCGCCCGUCCUCCCCUUUUGACGGAUGGUAUUCUUUCCUAACUCCCUCUGUU", "RBNS enrichment (R)": 1.48}
{"Strand": "CCAUUGUGUUACAGUUGCCUACAGUAUGAUUACAGUAACAUUCUGUACAGUGCUAUAGCUGAAGAGUAAUAGGCUAGGCUAUCUGUAUAGCCUAAGUGUGUAACAGGCUA", "RBNS enrichment (R)": 0.314}
{"Strand": "AAGCACACUGGCUCGCGGUUUCCAUCCCUCUUGCCUUGGGACACUCUUGAGGCUGGCAGCCCUCCUGCAAUGAGUUGCUCUCAGUUCCUUCUGUUUGGAUUUUGCUCAAC", "RBNS enrichment (R)": 0.515}
{"Strand": "ACCUAGGCUCCUGGACCCACACCCUCCUCAGGCUGACUUUACUGCCUUGGGAGAAGUCUACAUUUCCCAGACAAUAGUCUAGGCCUCUGGAACAGUUUCCUUCUCUGCUU", "RBNS enrichment (R)": 0.246}
{"Strand": "GUGGGCUAGUCACCAAAGGAUGAAGUUCAGCACGUGGGACAGAGAUAACGACAAUUACCAAGGAAACUGUGCUGAGGAAGAGCAGUCUGGCUGGUGGUUUAACAGGUGUC", "RBNS enrichment (R)": 0.757}
{"Strand": "CUUACUGGGUUUCCAAGCAGAGGAGUCACAUGAUUACAAUUGCCAGUAGAGUUGUUGUUUGGGGUACAAGAUGAGAAGAAAGAAAAACCUACAGCCUUUCUACAUUCUGA", "RBNS enrichment (R)": 0.543}
{"Strand": "CCUCUAAAGUGCCAAGGGACCAAUCAUUGAUGUUCCAUGGAGCCAGUCAUGGAAAUCCCUGGAAGGUUCACACAGCUCUCAUCCAAAGCCCUGGCCUUGCUAUGAGGGAA", "RBNS enrichment (R)": 0.368}
{"data": "Series 2", "target": "RING finger protein unkempt homolog, zinc fingers 1-6, GST-SBP tag (UNK, Homo sapiens, UniProt Q9C0B0, residues 30-357)", "method": "RNA Bind-n-Seq", "molecule type": "RNA", "medium": "in vitro", "tested at": "not given", "setting": "RNA with constant flanks, human and mouse sites, ends assumed", "baseline": "input RNA pool", "reading": "higher = stronger binding", "constant ends, left off below": "GGGAGUUCUACAGUCCGACGAUC … CAACAGAGGAUUGAGCAUCA", "Construct (chain)": "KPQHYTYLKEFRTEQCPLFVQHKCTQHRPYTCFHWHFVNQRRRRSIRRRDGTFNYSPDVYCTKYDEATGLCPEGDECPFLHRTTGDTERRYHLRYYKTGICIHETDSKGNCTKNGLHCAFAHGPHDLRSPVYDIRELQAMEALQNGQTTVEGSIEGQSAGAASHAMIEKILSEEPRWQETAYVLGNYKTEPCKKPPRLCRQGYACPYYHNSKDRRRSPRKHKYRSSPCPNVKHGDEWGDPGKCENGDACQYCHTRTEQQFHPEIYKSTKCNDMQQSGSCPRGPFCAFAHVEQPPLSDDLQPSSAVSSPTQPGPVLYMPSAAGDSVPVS"}
{"Strand": "AAGGAGGCAGAGGGUCAGAGCUUGGUGGUUUAUCUUUUCCUUGUUUCUCCUUGUUUCUGUUUUAGAAAUGAAGUGUGGGGGUUUAAAUGGCACUUAAACUGCACCCUGGAGCCGGCAGAA", "bound/input enrichment [ratio]": 0.455}
{"Strand": "CCUCCUUUUGCAACUGGACUGCCUCACUAUGGACAUAUACUUGCGGGUACAAUUAAAGAUAUAGUUACAAGAUAUGCUCACCAGAGUGGGUUUCAUGUUGACAGAAGAUUUGGAUGGGAU", "bound/input enrichment [ratio]": 1.16}
{"Strand": "GGUGUUGUAAGUGCCCAAAGUCAUGGUACUUGUAUUCCCAGUGAAGAUAAAACCUGUCAGAGCACAAAGAUGGUUUCUUAUAAUGAUUCUGUCACACAAGCCACCUUGACCACAGCUUAU", "bound/input enrichment [ratio]": 0.0946}
{"Strand": "AUCAUUGGCUAUGCCAGGAACCCGUCUCUCAAGCAGCAGCUCUUCUCCUAUGCCAUUCUUGGCUUUGCCCUGUCUGAGGCCAUGGGGCUUUUCUGUUUGAUGGUCGCCUUCCUCAUCCUC", "bound/input enrichment [ratio]": 0.131}
{"Strand": "GGCUUCCGUCGAGCAUGAGCAAGAUGGCAGCCUCCGAGACGGUUAGGCUACGGCUUCAAUUUGACUACCCGCCGCCGGCCACUCCACACUGCACGGUCUUCUGGCUUCUGGUGGACCUGA", "bound/input enrichment [ratio]": 0.0341}
{"Strand": "GGGGGCCAGGGGGCGGUGGCGGGAGGAUUGAGUGCCUAGACGGUCGCCCAGGAGCAGGUGUAGCUACUUCACAUCGACUGACUCCAAGAUGGCAAUCCAGUUGCGUUCGCUCUUCCCCUU", "bound/input enrichment [ratio]": 0.408}
{"Strand": "UGUAUUAAAUCAAUUUAUCACUGUUUGAAGCUUUGAAUACCUGCAAUCUUUGCCAAGAUACUUUUUUAUUUAAAAAAAUAACUGUGUAAAUAUUACCCUGUAAUAUUAUAUAUACUUAAU", "bound/input enrichment [ratio]": 0.386}
{"Strand": "CUGGGCAUUUAUAACUAGAUUCAUUAAGGAAUACAAAGAAAAUAUUUAAAGGGAUCAAUAAUGGUGUCUUCUGGCUGCAGAAUGCGAAGUCUGUGGUUUAUCAUUAUAAUCAGUUUCUCA", "bound/input enrichment [ratio]": 0.76}
{"Strand": "AUCAGAGACCAUGUAGUUCAACUUUCCACUCAAAGUAAGAUUUAUGAAUUAUUUAAAUGAUAGUUGUUACUUGGAACAGCCACUUGAGAGGCUCUCUUGGUAUUGUUUGGAAUUGUUUUA", "bound/input enrichment [ratio]": 1.15}
{"Strand": "AUGGAAGAUACGUUGAAGAGGAGGUUUUUCUACGAUCAGGCUUUUGCUAUUUAUGGAGGUGUCAGUGGAUUGUAUGACUUCGGGCCGGUAGGAUGUGCUUUGAAGAACAAUAUCAUCCAG", "bound/input enrichment [ratio]": 0.367}
{"Strand": "AAACACAGUGAUCACCGAAUGAGGGAAAAAGCAGACAUUCAACUUCUUGUUUACACUAUUGAUGACUUAAUUGAUAAGCUCUCAACUAUAGUUAACUAGUAUCACAUGUUUAGUUGGUAU", "bound/input enrichment [ratio]": 1.28}
{"data": "Series 3", "target": "Sal-like protein 4, full length isoform B (SALL4, Homo sapiens, UniProt Q9UJQ4-2, residues 1-616)", "method": "universal PBM", "molecule type": "double-stranded DNA, one strand shown", "medium": "in vitro", "tested at": "not given", "setting": "8-mer, flanks averaged, mean of replicates", "reading": "higher = stronger binding"}
{"Strand": "AAGGACTG", "E-score": -0.195}
{"Strand": "CACTCGAA", "E-score": 0.0711}
{"Strand": "GCGTTGCA", "E-score": -0.177}
{"Strand": "CCGTGACC", "E-score": -0.312}
{"Strand": "GATTTTAA", "E-score": 0.206}
{"Strand": "GGTTGTCA", "E-score": -0.00974}
{"Strand": "GCGGAAAC", "E-score": -0.101}
{"Strand": "GCCTGAAC", "E-score": -0.183}
{"Strand": "GCTAACCA", "E-score": -0.191}
{"Strand": "AAGCCTAT", "E-score": 0.161}
{"Strand": "AACGAAGA", "E-score": 0.0791}
{"Strand": "AATTGAGT", "E-score": 0.101}
{"Strand": "ACACACGC", "E-score": 0.114}
{"Strand": "ACGTGATA", "E-score": 0.136}
{"Strand": "AATCTAAC", "E-score": 0.137}
{"Strand": "AGAGTTCA", "E-score": -0.0014}
{"Strand": "AGGGTACG", "E-score": -0.00503}
{"Strand": "AAGCTAGC", "E-score": -0.0179}
{"Strand": "AAGGCCGC", "E-score": -0.206}
{"Strand": "AGCGGCCT", "E-score": -0.345}
{"Strand": "AGGACGCA", "E-score": -0.234}
{"Strand": "CAAACGAC", "E-score": -0.0236}
{"Strand": "AGATACCA", "E-score": 0.0683}
{"Strand": "CTGATTCC", "E-score": -0.13}
{"Strand": "ATGCATGG", "E-score": 0.0969}
{"data": "Series 4", "target": "Interferon regulatory factor 3, full length, phosphomimetic (IRF3, Homo sapiens, UniProt Q14653, residues 1-427, S386D/S396D/S398D/S402D/T404D/S405D)", "method": "protein-binding microarray", "molecule type": "double-stranded DNA, one strand shown", "medium": "in vitro", "tested at": "2540 nM top", "setting": "60-bp whole probe", "together with": "salmon DNA 0.4 mg/ml", "baseline": "random background probes", "reading": "higher = stronger binding", "constant ends, left off below": "GCCTAGCAC … GTCTTGATTCGCTTGACGCTGCTG", "Construct (chain)": "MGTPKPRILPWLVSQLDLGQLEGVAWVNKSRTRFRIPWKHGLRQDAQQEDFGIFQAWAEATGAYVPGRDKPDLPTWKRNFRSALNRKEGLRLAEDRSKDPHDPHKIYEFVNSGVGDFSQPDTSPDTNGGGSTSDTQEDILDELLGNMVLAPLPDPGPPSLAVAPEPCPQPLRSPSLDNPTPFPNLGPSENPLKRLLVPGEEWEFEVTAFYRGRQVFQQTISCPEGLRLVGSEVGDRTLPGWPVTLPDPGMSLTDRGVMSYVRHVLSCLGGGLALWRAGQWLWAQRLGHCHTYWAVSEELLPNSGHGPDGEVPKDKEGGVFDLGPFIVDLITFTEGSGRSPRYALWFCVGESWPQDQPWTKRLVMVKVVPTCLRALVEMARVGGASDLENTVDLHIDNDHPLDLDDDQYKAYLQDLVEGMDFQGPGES"}
{"Strand": "GATGGACTGGGTATCGGGACGTGCTAG", "fitted relative affinity": "-0.575 z-score"}
{"Strand": "CTGAGATGCATTCTGGGCCCGTGCTAG", "fitted relative affinity": "-0.222 z-score"}
{"Strand": "TCAAAGTTCATGTTCAAACTGTGCTAG", "fitted relative affinity": "-0.0952 z-score"}
{"Strand": "TCACTCTTTGGCAAAGCCAGGTGCTAG", "fitted relative affinity": "0.33 z-score"}
{"Strand": "GTGGTTTTCATTATTGCTTCGTGCTAG", "fitted relative affinity": "2.69 z-score"}
{"Strand": "TTAGGACTGCGACTGCTTTAGTGCTAG", "fitted relative affinity": "-0.729 z-score"}
{"Strand": "GCCTTGTTCGTCGCTCCGCTGTGCTAG", "fitted relative affinity": "-0.207 z-score"}
{"Strand": "TCAGTTTTGTGTCTGGGACTGTGCTAG", "fitted relative affinity": "1.12 z-score"}
{"Strand": "GACGGTTTCGCTATCGGGACGTGCTAG", "fitted relative affinity": "5.95 z-score"}
{"Strand": "GACGGTAACCTTTTCCTGACGTGCTAG", "fitted relative affinity": "2.48 z-score"}
{"Strand": "GATGGTCTCGGTATCGGGACGTGCTAG", "fitted relative affinity": "1.53 z-score"}
{"Strand": "GACGGTTTAGGTATCGGGACGTGCTAG", "fitted relative affinity": "1.48 z-score"}
{"Strand": "GACGACTTCAGTCTCGAGACGTGCTAG", "fitted relative affinity": "-0.0587 z-score"}
{"Strand": "TTACATTTCGGGTATCGATTAGTGCTA", "fitted relative affinity": "1.67 z-score"}
{"Strand": "GACGGACTGGGGAATGGGGACGTGCTA", "fitted relative affinity": "-0.713 z-score"}
{"Strand": "GACGATCTCAGAATCGAGACGTGCTAG", "fitted relative affinity": "0.721 z-score"}
{"Strand": "TCACCTTCTACTCTCCTACTGTGCTAG", "fitted relative affinity": "2.08 z-score"}
{"Strand": "AGAAACTTGTATTTGTCCCTGTGCTAG", "fitted relative affinity": "0.618 z-score"}
{"note": "A few entries again (series 3):"}
{"Strand": "AGCGGCCT", "E-score": -0.345}
{"Strand": "AGGACGCA", "E-score": -0.234}
{"Strand": "CAAACGAC", "E-score": -0.0236}
{"Strand": "AGATACCA", "E-score": 0.0683}
{"Strand": "CTGATTCC", "E-score": -0.13}
